Measurements gathered from unrelated publications.
Compare with care: the assays were run in different laboratories. ± marks the error that the study gave. ≈ marks a conversion by molar mass, not a printed value.
Organism: Bacillus cereus

| Compound | assay | test system | conditions | quantity | result |
| --- | --- | --- | --- | --- | --- |
| CCOC(=O)C1=C(C)NC2=C(C(=O)CC(C)(C)C2)C1c1ccc(OCC(=O)NN=Cc2cccc([N+](=O)[O-])c2)cc1OCC(=O)NN=Cc1cccc([N+](=O)[O-])c1 (stereo not shown) |  | EMC19 | concentration not given, 24 h, 37 °C | inhibition zone diameter | 8.6 ± 0.3 mm |
| Oc1c(Br)ccc2cccnc12 | microbial growth, agar dilution |  |  | MIC | 35.7 µM (≈ 8 µg/mL) |
| CO[C@H]1O[C@H](COC(c2ccccc2)(c2ccccc2)c2ccccc2)[C@@H](OS(=O)(=O)c2ccccc2)[C@H](OS(=O)(=O)c2ccccc2)[C@H]1OS(=O)(=O)c1ccccc1 |  |  | concentration not given | inhibition zone diameter | 15 ± 0.3 mm |
| CC(/C=C/C(O)=C1/C(=O)CNC1=O)=C\[C@@H](C)[C@H]1O[C@@]2(C)O[C@H](C[C@@H]3O[C@@]32C)[C@@H]1C |  |  |  | MIC | > 100 µM |
| O=C(O)CN1C(=O)/C(=C/c2ccc(-c3ccc(N(c4ccccc4)c4ccccc4)cc3)cc2)NC1=S | broth microdilution | ATCC 10876 |  | MBC/MIC ratio | 2 |
| Cc1cc(O)c2c(c1)C(=O)c1cc3oc(=O)cc(-c4ccc(Cl)cc4)c3c(O)c1C2=O |  | MTCC 1306 | 100 µg/disc | zone of inhibition | 8 mm |
| CCOC(=O)C1=C(C)NC2=C(C(=O)CC(C)(C)C2)C1c1ccc(OCC(=O)NN=Cc2cc(Br)c(O)c(Br)c2)cc1OCC(=O)NN=Cc1cc(Br)c(O)c(Br)c1 (stereo not shown) |  | EMC19 | concentration not given, 24 h, 37 °C | inhibition zone diameter | 13.4 ± 0.03 mm |
| COc1c2c(cc3oc(=O)cc(-c4ccc(Cl)cc4)c13)C(=O)c1cc(C)cc(O)c1C2=O |  | MTCC 1306 | 100 µg/disc | zone of inhibition | 13 mm |
| CC(C=CC(O)=C1C(=O)CNC1=O)=CC(C)C1OC2(C)OC(C1C)C(O)C1OC12C (stereo not shown) |  |  |  | MIC | > 100 µM |
| Cc1cc(O)cc2c1C(=O)c1c(cc3oc(=O)cc(C)c3c1O)C2=O |  | MTCC 1306 | 100 µg/disc | zone of inhibition | < 8 mm |
| Oc1c(Cl)cc(Cl)c2cccnc12 | microbial growth, agar dilution |  |  | MIC | 37.4 µM (≈ 8 µg/mL) |
| Cc1cc(O)c2c(c1)C(=O)c1cc3oc(=O)cc(-c4ccc(O)cc4)c3c(O)c1C2=O |  | MTCC 1306 | 100 µg/disc | zone of inhibition | 8 mm |
| CC(=O)[O-].O.O.[O-]c1ccc(Br)cc1C=NCCN1CCOCC1.[Zn+2] |  |  | 20 µL of 100 µM per disc | inhibition zone diameter | 26 mm |

Some of these lines once more:
| Compound | assay | test system | conditions | quantity | result |
| --- | --- | --- | --- | --- | --- |
| CCOC(=O)C1=C(C)NC2=C(C(=O)CC(C)(C)C2)C1c1ccc(OCC(=O)NN=Cc2cc(Br)c(O)c(Br)c2)cc1OCC(=O)NN=Cc1cc(Br)c(O)c(Br)c1 (stereo not shown) |  | EMC19 | concentration not given, 24 h, 37 °C | inhibition zone diameter | 13.4 ± 0.03 mm |
| COc1c2c(cc3oc(=O)cc(-c4ccc(Cl)cc4)c13)C(=O)c1cc(C)cc(O)c1C2=O |  | MTCC 1306 | 100 µg/disc | zone of inhibition | 13 mm |
